{"data": "Results of several laboratories", "note": "A part holds a random share of what one study measured."}
{"data": "Study 1", "target": "Interferon regulatory factor 5, full length, phosphomimetic (IRF5, Homo sapiens, UniProt Q13568-2, residues 1-514, S451D/S453D/S456D/S462D)", "technique": "protein-binding microarray", "molecule type": "double-stranded DNA, one strand shown", "medium": "in vitro", "concentration": "940 nM top", "notes": "60-bp whole probe", "together with": "salmon DNA 0.4 mg/ml", "baseline": "random background probes", "reading": "higher = stronger binding"}
{"Sequence": "GCCTAGCACTCAGGCTTCATGTTGCTCACTGTGCTAGTCTTGATTCGCTTGACGCTGCTG", "fitted relative affinity [z-score]": -0.402}
{"Sequence": "GCCTAGCACGCCGGTTTCCTTCTCCTGACGTGCTAGGTCTTGATTCGCTTGACGCTGCTG", "fitted relative affinity [z-score]": 2.14}
{"Sequence": "GCCTAGCACTTAGGTTTCGACTATTGGTTAGTGCTAGTCTTGATTCGCTTGACGCTGCTG", "fitted relative affinity [z-score]": 9.19}
{"data": "Study 2", "target": "Histone acetyltransferase KAT6A, winged helix 2, GST fusion (KAT6A, Homo sapiens, UniProt Q92794, residues 85-181)", "technique": "protein binding microarray", "molecule type": "double-stranded DNA, one strand shown", "medium": "in vitro", "concentration": "not given", "notes": "8-mer, flanks averaged, mean of 2 arrays, mostly near background", "baseline": "not given", "reading": "higher = stronger binding", "Construct (chain)": "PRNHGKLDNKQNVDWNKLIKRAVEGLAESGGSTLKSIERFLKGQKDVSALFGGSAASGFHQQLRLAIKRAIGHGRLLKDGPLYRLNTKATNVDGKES"}
{"Sequence": "CGGCACTC", "E-score": 0.038}
{"Sequence": "CAGGCTGC", "E-score": 0.0196}
{"Sequence": "CCGCCTTC", "E-score": 0.0913}
{"Sequence": "AGGAGTGG", "E-score": -0.0819}
{"Sequence": "CGTACCCC", "E-score": 0.085}
{"Sequence": "AGTTTGAG", "E-score": 0.0342}
{"data": "Further values, each from its own experiment", "F2 mature alpha-thrombin": "Prothrombin, mature alpha-thrombin (F2, Homo sapiens, UniProt P00734)"}
{"Substance": "GGTTGGTGTGGTTGG (2'F-ANA at 2 6 9 13)", "target": "F2 mature alpha-thrombin", "assay": "aptamer microarray, sandwich", "system": "DNA with 2'F-ANA, in vitro", "setting": "200 nM, whole 15-mer aptamer, many near background, together with: Cy3 exosite-II aptamer, 400 nM", "how to read": "higher = stronger binding", "quantity": "mean fluorescence intensity", "result": "259 a.u."}
{"Substance": "PhoQ, residues 284 288 289 292 302 303 AEGLLW", "target": "PhoP, residues 12 14 15 18 19 SQCLL (Escherichia coli, UniProt P23836)", "assay": "Sort-seq, measured: YFP reporter", "system": "E. coli", "setting": "PhoQ-PhoP variant library, together with: 10 µM Mg2+", "how to read": "baseline: high Mg2+ state, higher = stronger signaling", "quantity": "fold induction", "result": 11.8}
{"Substance": "GGTTGGTGTGGTTGG (2'F-ANA at 3 4 6 7 13 15)", "target": "F2 mature alpha-thrombin", "assay": "aptamer microarray, sandwich", "system": "DNA with 2'F-ANA, in vitro", "setting": "200 nM, whole 15-mer aptamer, many near background, together with: Cy3 exosite-II aptamer, 400 nM", "how to read": "higher = stronger binding", "quantity": "mean fluorescence intensity", "result": "484 a.u."}
